Assay results from different studies.
Lines come from different studies, so protocols differ. Numbers after ± are the reported error.
Organism: Plasmodium falciparum

Cc1ccc(-c2csc(CNC(=O)[C@H]3CCCN(C(=O)[C@H]4CCC(C)(C)O4)[C@H]3C)n2)cn1 — EC50 (SYBR Green growth; asexual blood-stage parasites, 3D7; 72 h): 7 ± 1 nM
N#Cc1cnc(Nc2ccnc3ccc(-c4ccc(S(=O)(=O)N5CCOCC5)cc4)cc23)cn1 — EC50 (parasite growth, SYBR Green; W2): 820 nM
C[C@H]1Cc2c([nH]c3cc(Cl)c(F)cc23)[C@@]2(N1)C(=O)Nc1ccc(Cl)cc12 — fold lysis (luminescence; red blood cells, 3D7 Hyp1-Nluc; 10 × EC50, 8 h; relative to: DMSO): ~5 fold
Cn1cc(-c2cnc3[nH]cc(-c4cn(Cc5cccc(F)c5F)nn4)c3c2)cn1 — inhibition (invasion and early ring development; Hyp1-Nluc; 10 x growth EC50, 4 h): 29.9%
CC1=C(Cc2cn(Cc3ccccc3)nn2)C(=O)c2ccccc2C1=O — selectivity index (NF54; relative to: L6 CC50 over IC50): 55.2
Cc1cc(Nc2ccnc3ccc(-c4ccc(S(=O)(=O)N5CCOCC5)cc4)cc23)sn1 — EC50 (parasite growth, SYBR Green; W2): 720 nM
N=C(N)NCCCCC(=O)Nc1cc(C(F)(F)F)cc(NC(=O)c2cc(C(=O)Nc3cc(C(F)(F)F)cc(NC(=O)CCCCNC(=N)N)c3O[C@@H]3CCNC3)ncn2)c1O[C@@H]1CCNC1 — inhibition (erythrocyte invasion; 7.78 µM): 100%
Cn1nc2c(=O)n(C3CC3)cnc2c1[C@](O)(c1cnc(C(F)(F)F)c(Cl)c1)C(F)(F)F — time to kill 99.9% (parasite reduction ratio; 3D7): 72 h
Cc1cnc(Nc2ccnc3ccc(-c4ccc(S(=O)(=O)N5CCOCC5)cc4)cc23)s1 — EC50 (parasite growth, SYBR Green; W2): 370 nM
CCc1nc(N)nc(N)c1-c1ccc(Cl)cc1 — EC50 (parasite growth, parasite reduction ratio; 3D7): 27 nM
COCC(=O)N1CCC[C@H](C(=O)NCc2nc(-c3cnn(C)c3)cs2)C1 — EC50 (parasite growth, SYBR Green; 3D7, asexual blood stage; 72 h): 870 ± 210 nM
COC1=C(OC)/C(=C/c2[nH]c(Cc3ccc(OC(F)(F)F)cc3)cc2Cc2ccc(OC(F)(F)F)cc2)N=C1c1ccc[nH]1 — IC50 (parasite growth, SYBR Green fluorescence; Dd2 (multidrug-resistant), asexual blood stage; 72 h): 62.9 nM
CNS(=O)(=O)c1ccccc1Nc1nc(Nc2ccc(N3CCOCC3)cc2OC)ncc1Br — inhibition (invasion and early ring development; Hyp1-Nluc; 10 x growth EC50, 4 h): 73.8%
O=C(NCc1nc(-c2ccccc2)cs1)[C@H]1CCCN(C(=O)COc2ccccc2)C1 — EC50 (SYBR Green growth; asexual blood-stage parasites, 3D7; 72 h): 760 ± 240 nM
O=S(=O)(c1ccc(-c2ccc3nccc(Nc4cnccn4)c3c2)cc1)N1CCOCC1 — EC50 (parasite growth, SYBR Green; W2): > 20000 nM
COc1ccc(CNc2nc(-c3ccc(C(=O)O)nc3)nc3sc4c(c23)CCCC4)cc1Cl — parasite growth (LDH readout; 3D7 Hyp1-Nluc; 20 µM, 72 h; relative to: DMSO): 0.483%
CCOC1=CC(c2ccc[nH]2)=N/C1=C\c1cc(Cc2ccc(OC(F)(F)F)cc2)c(C)[nH]1 — IC50 (parasite growth, SYBR Green fluorescence; Tm90-C2B (atovaquone-resistant), asexual blood stage; 72 h): 9.02 nM
Cn1nc2c(=O)n(C3CC3)ncc2c1[C@](N)(c1ccc(C(F)(F)F)c(Cl)c1)C1CC1 — time to kill 99.9% (parasite reduction ratio; 3D7): 75 h
CC(C)(C)OCC(=O)N1CCC[C@H](C(=O)NCc2nc(-c3ccccc3)cs2)C1 — EC50 (SYBR Green growth; asexual blood-stage parasites, 3D7; 72 h): 3600 ± 1400 nM
Cl.N=C(CC(O)c1cc2c(F)cc(F)cc2c2cc(C(F)(F)F)ccc12)Nc1ccc(Br)cc1 (stereo not drawn) — parasite clearance time (parasite reduction ratio; 3D7 ring stage; 10-fold IC50): ≤ 72 h
COCC(=O)N1CCC[C@H](C(=O)NCc2nc(-c3ccc(OC(F)(F)F)cc3)cs2)C1 — EC50 (SYBR Green growth; asexual blood-stage parasites, 3D7; 72 h): 23 ± 3.5 nM
COC1=CC(c2ccc[nH]2)=N/C1=C\c1[nH]c(C(=O)O)cc1Cc1ccc(Cl)cc1 — IC50 (parasite growth, SYBR Green fluorescence; Dd2 (multidrug-resistant), asexual blood stage; 72 h): > 2500 nM
CCOCC(=O)N1CCC[C@@H](CNCc2nc(-c3ccccc3)cs2)C1 — EC50 (SYBR Green growth; asexual blood-stage parasites, 3D7; 72 h): > 5000 nM
O=S(=O)(c1ccc(-c2ccc3nccc(Nc4ccc5[nH]nnc5c4)c3c2)cc1)N1CCOCC1 — EC50 (parasite growth, SYBR Green; D6): 180 nM
COc1cc(C(=O)N(C)C)ccc1-c1cc2nccc(-c3ccc4ccncc4c3)c2o1 — parasite growth (nanoluciferase readout; 3D7 Hyp1-Nluc; 20 µM, 72 h; relative to: DMSO): 0.1%
CCn1nccc1Nc1ccnc2ccc(-c3ccc(S(=O)(=O)N4CCOCC4)cc3)cc12 — EC50 (parasite growth, SYBR Green; W2): 3200 nM
CC/N=C(\c1ccc(OC)c(OC)c1)N1CCCc2cc(C3=NNC(=O)SC3C)ccc21 (stereo not drawn) — parasite growth (LDH readout; 3D7 Hyp1-Nluc; 2 µM, 72 h; relative to: DMSO): 41.1%
COCC(=O)N1CCC[C@H](C(=O)NCc2nc(-c3cccc(F)c3)cs2)C1 — EC50 (SYBR Green growth; asexual blood-stage parasites, 3D7; 72 h): 240 ± 49 nM
COc1cc(OC)c(CCNC(=O)c2cn3cc(-c4cc(OCC(=O)O)ccc4OC)nc3s2)c(OC)c1 — parasite growth (nanoluciferase readout; 3D7 Hyp1-Nluc; 20 µM, 72 h; relative to: DMSO): 3.42%
COC1=C(OC)/C(=C/c2cc(-c3ccc(OC(F)(F)F)cc3)c(C)[nH]2)N=C1c1ccc[nH]1 — IC50 (parasite growth, SYBR Green fluorescence; Dd2 (multidrug-resistant), asexual blood stage; 72 h): 510 nM
COc1nc2ccc(Br)cc2cc1[C@@H](c1ccccc1)[C@@](O)(CCN(C)C)c1cccc2ccccc12 — inhibition (erythrocyte invasion; 4.64 µM): 100%
CNS(=O)(=O)c1ccccc1Nc1nc(Nc2cc(OC)c(OC)cc2C)ncc1Br — parasite growth (nanoluciferase readout; 3D7 Hyp1-Nluc; 20 µM, 72 h; relative to: DMSO): 5.51%
O=S(=O)(c1ccc(-c2ccc3nccc(Nc4ccccn4)c3c2)cc1)N1CCOCC1 — EC50 (parasite growth, SYBR Green; TM91C235): 670 nM
O=C(CC1NCCCC1O)Cn1cnc2cc(Br)c(Cl)cc2c1=O (stereo not drawn) — IC50 (parasite growth; cPRS conditional knockdown line; 72 h, added: 50 nM anhydrotetracycline): 0.1 nM
O=S(=O)(c1ccc(-c2ccc3ncccc3c2)cc1)N1CCOCC1 — EC50 (parasite growth, SYBR Green; D6): > 20000 nM
COCC(=O)N1CCCC(C)(C(=O)NCc2nc(-c3ccccc3)cs2)C1 (racemic) — EC50 (SYBR Green growth; asexual blood-stage parasites, 3D7; 72 h): > 5000 nM

A few entries again:
O=C(CC1NCCCC1O)Cn1cnc2cc(Br)c(Cl)cc2c1=O (stereo not drawn) — IC50 (parasite growth; cPRS conditional knockdown line; 72 h, added: 50 nM anhydrotetracycline): 0.1 nM
COCC(=O)N1CCC[C@H](C(=O)NCc2nc(-c3cccc(F)c3)cs2)C1 — EC50 (SYBR Green growth; asexual blood-stage parasites, 3D7; 72 h): 240 ± 49 nM
Cn1nc2c(=O)n(C3CC3)ncc2c1[C@](N)(c1ccc(C(F)(F)F)c(Cl)c1)C1CC1 — time to kill 99.9% (parasite reduction ratio; 3D7): 75 h
COc1cc(C(=O)N(C)C)ccc1-c1cc2nccc(-c3ccc4ccncc4c3)c2o1 — parasite growth (nanoluciferase readout; 3D7 Hyp1-Nluc; 20 µM, 72 h; relative to: DMSO): 0.1%
CCn1nccc1Nc1ccnc2ccc(-c3ccc(S(=O)(=O)N4CCOCC4)cc3)cc12 — EC50 (parasite growth, SYBR Green; W2): 3200 nM
